Experimental data of several laboratories.
Numbered parts are unrelated; each lists some results of a single study.

Block 1
Target: RNA binding protein fox-1 homolog 2, RRM domain, GST-SBP tag (RBFOX2, Homo sapiens, UniProt O43251-10, residues 100-194)
Method: RNA Bind-n-Seq
Molecule type: RNA
Sample: in vitro
Tested at: 365 nM
Setting: natural RNA segment, single round, ends assumed
Relative to: no-protein control
Direction: higher = stronger binding
Shared flanks, not repeated: GGGAGUUCUACAGUCCGACGAUC … UGGAAUUCUCGGGUGCCAA
Construct (chain): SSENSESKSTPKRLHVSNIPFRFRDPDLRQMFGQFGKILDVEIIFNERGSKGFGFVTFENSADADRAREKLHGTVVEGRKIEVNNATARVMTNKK
Strand	RBNS enrichment (R)
CAUUUUCAAUAACGCGCGCACAGCACACAGGGGUGCCCUGAGCCGAAGGAGCAAAAAAAGCCACCGCUCGUUUCUAUAAUCCAGCUUUGCUUUUCACAGGCGUGGGAUCC	0.502
CCUGCCUGGACACAGGGAGGCCCAGGGACUGACUCCUGGCCUGAGUGAUGCCCUCCUGGGCCCUUAGGCAGAGCCUGGUCCAUUGUACCAGGCAGCCUAGCCCAGCCCAG	0.193
UGUGACUCCAGUAUAUCUUACCUGUACUGACCAAACCUAAAUAAAGAUUUUUAUUGUAACUCCUUAAUUAGCUUUUUUGUUUUGUUUUGGGUGUAUGUUUAGCAUUUGUC	0.571
GGUACCCUCUUGGCAGAUGGGGGCAUCACUUGCUUCCUUUGGGAAGCUCUAAGGUUGCUGCAGUCACCUUCCUCAUCUUGCAGGUGCUGAACCAACAUCAUCAGUUUCUA	0.417
GCCCCUCCGCUGUCCCACCCUGGGCCUGGGACACGGGCCUGGGGCAGUGUGUGUCUGCUGGUCAUGUGCUGGUGCCAGUUGGGGAGGAAUCAGCUGUCUCGGUGGAUUCU	0.467
GAAAUGUUGAAAUGUUUAACCUGAUAGGCUUCUCUAUAAAAGAGUGUUUUGUUUUUUUCCCUGCACCACAAGCUGUGUUUAUCACUUUACAGUUGCAUGUUCAACUUGUC	8.84
UUAGACAUAUAUUGCCAAGCCAAAGUUACCAUAUUUCGGUGUUUUUGUGUUUACUCUUUGUAAAGCAAAGAGGUCUGUAUUUACACACCUUUACCUAGGGGUAUGUUUUC	0.345
CCAUAGCCUCCUCCCCAGGACCUGUGCUCCCAGCUUCUGCAGAGACCCCAGCAACUUUCCCUCCAAGCCUCCUUGAAGUCCGAUUCCCACCCCGCAAGUCACAGGCAUUC	2.48
CACAUUCACCUCCGACACGCCAUUUCACCUCCCUCGCCACACUGUUAGCCUUAGUGAUUGCAGUGAACACUGUUUACACACCGUGAAUCCAUUCCCACCAGUCCAUUUCA	0.804
UUUUCUGUUUAGGAAGAAGUGGUACUAGUGUGGUGUGUUUGCUUGGAAAUUCCUUGCCCCACAGUUGUGUUCAUGCUGAAUCCACCUCGGAGCAUGGUGUUUUCAUUCCC	1.75
CCCAGCUGGAAACCCAGAGUCUGAGGGGGAAUCAGGUUCUGGAAGGCAAGCCAGAACUCCAGAGCUGAGCUGGUCACAGUCACUCCUCCCCCACCACCCCUGCCCCUCCA	0.362
GGCUAGAACGAGAGUGCCUCCCCUUCUUGUGUCCUGGCUGGCUGGGAUGCUGGUGGCUCUUCAGAGGAGCAUCAGCUGUCUGUCAUCUGCUGCGAUCCGGCAGCCUCUCU	0.33

Block 2
Target: Interferon regulatory factor 3, full length, phosphomimetic (IRF3, Homo sapiens, UniProt Q14653, residues 1-427, S386D/S396D/S398D/S402D/T404D/S405D)
Chain of UniProt Q14653 (whole entry, unmodified, looked up): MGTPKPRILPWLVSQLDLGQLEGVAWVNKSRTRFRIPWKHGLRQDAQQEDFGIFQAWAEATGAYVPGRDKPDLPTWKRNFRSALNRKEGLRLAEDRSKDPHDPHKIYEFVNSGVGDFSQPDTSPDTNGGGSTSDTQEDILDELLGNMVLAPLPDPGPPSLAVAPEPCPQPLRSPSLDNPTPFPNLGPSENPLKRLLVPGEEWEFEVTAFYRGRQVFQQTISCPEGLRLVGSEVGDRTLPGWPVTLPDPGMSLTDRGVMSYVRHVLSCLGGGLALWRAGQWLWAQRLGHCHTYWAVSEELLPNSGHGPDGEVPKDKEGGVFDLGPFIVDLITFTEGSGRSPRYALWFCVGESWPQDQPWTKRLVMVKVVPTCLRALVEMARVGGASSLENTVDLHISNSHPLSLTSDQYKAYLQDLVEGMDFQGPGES
Method: protein-binding microarray
Molecule type: double-stranded DNA, one strand shown
Sample: in vitro
Tested at: 2540 nM top
Setting: 60-bp whole probe
With: salmon DNA 0.4 mg/ml
Relative to: random background probes
Direction: higher = stronger binding
Shared flanks, not repeated: GCCTAGCAC … GTCTTGATTCGCTTGACGCTGCTG
Strand	fitted relative affinity
TTAGGACTGGACCTTCGGTTAGTGCTA	-0.689 z-score
GACGGTATCTGACTGGGGACGTGCTAG	0.324 z-score
TCATCACTTTCTTTAACACTGTGCTAG	1.64 z-score
GACGGTTGCGGTTTCGGGACGTGCTAG	6.62 z-score
GACGGACTAGACTTTCGGGACGTGCTA	0.14 z-score
GACGGTTTCCTTTTCCTAACGTGCTAG	11.1 z-score
TTAGGTATTCTTTTCCTTTAGTGCTAG	2.46 z-score
TCACCTCAGGGTTTCAGACTGTGCTAG	0.65 z-score
TTAGGTATCGGGACTGGGTTTGTGCTA	1.01 z-score
GACTGTCTCCTTATCCTGACGTGCTAG	2.46 z-score
GGGAAAATGGCTTTGCAGATGTGCTAG	-0.853 z-score
GACGGACTGGGTCTCGCGACGTGCTAG	-0.841 z-score
TTGGGTCTCCTACTGCTTTAGTGCTAG	-0.107 z-score
TTAGGACTGCTACTACTTTAGTGCTAG	-0.313 z-score
TTAGGACTGGACACTGGTTTAGTGCTA	-0.807 z-score
TTAGGGTTCCTTATCCTTTAGTGCTAG	3.71 z-score
GACGAACTGGGCTATCGAGACGTGCTA	-0.691 z-score
TTAGCACTGGGGACTGGATTAGTGCTA	-1.05 z-score
TCATTTCTGTTTTTGCTACTGTGCTAG	3.67 z-score
TTAGGACTGGGTTTTGGTTAGTGCTAG	-0.265 z-score
TGTTTTTGCTTTCTTTATGTGTGCTAG	2.73 z-score
TTAGGTATCCTATTCCTTTAGTGCTAG	4.72 z-score
TCAGATTTCAATTAAAAACTGTGCTAG	1.56 z-score
TCATGTTTCTACTGTCTGACTGTGCTA	0.492 z-score

Block 3
Target: Hepatocyte nuclear factor 3-alpha (Foxa1, Mus musculus, UniProt P35582, residues 1-468, full length assumed)
Method: EMSA with sequencing
Molecule type: double-stranded DNA, one strand shown
Sample: in vitro
Tested at: 10 and 20 nM
Setting: whole designed probe, mean of two concentrations, ends assumed
Relative to: negative control set to 0
Direction: higher = stronger binding
Shared flanks, not repeated: GTGAGCGGTGCCCATTGATGGGGAAC … TTTCACTGGGATCGTGGGGAC
Target sequence (chain): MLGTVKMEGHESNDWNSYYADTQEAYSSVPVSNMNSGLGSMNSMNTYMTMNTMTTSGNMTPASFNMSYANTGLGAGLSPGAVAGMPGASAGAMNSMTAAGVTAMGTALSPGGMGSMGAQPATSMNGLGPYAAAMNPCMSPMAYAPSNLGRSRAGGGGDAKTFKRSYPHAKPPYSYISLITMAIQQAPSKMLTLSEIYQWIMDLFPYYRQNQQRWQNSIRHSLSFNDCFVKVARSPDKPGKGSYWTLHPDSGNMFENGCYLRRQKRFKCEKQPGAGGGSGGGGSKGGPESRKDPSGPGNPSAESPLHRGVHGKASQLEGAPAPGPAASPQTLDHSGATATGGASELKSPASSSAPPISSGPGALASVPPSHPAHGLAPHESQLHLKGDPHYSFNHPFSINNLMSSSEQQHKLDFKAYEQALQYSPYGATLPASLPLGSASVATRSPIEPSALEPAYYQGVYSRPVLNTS
Strand	normalised bound fraction [ratio]
CTTCCAAATTACATGAGATTTCTGTTTCTACATTTTCTTTGTCTTGGCATATTTGATGATGTGCATTGAGTCATTATATAGCTTCTAAGAATCAGATTACTTTTTACTATGTTAACAATGAGTTCTTGGGGATATTCCTGTTTGAAAATCACTGTACGTGTAGTAAATCTATTTCTGGGATCTCCATTCCCAT	0.0652
TCAACTGTGCCATGTTAGCAGGAAAGCTGCCAGACACAATAAGTACACAAACAGCGTGGCTGTGTTCCAAAAAAACTTTATTTACACACACTTTGTTTACACACATAGGTGGCAAGCTGTAATTTTTTTATGTAATTTATGGTATTTTGCCATAGTTTGCTGACTCTTGATACAAATATGGAGACTTTTAAAG	0.513
TTTGCTCCCCACACCCATTGCCTGCCACAAAAGGGTATTTTGCCAACTTCAGTATGTAATCTTTTAGGGATATAGATGACGTGATCACATGTCAGATTACATAGTTAATAATTTACGCATACACATTTAAACTTACTCATATAAAGTCATACACAATTTAGAATCATTACTTTTTGCTATTCTTACATTTCAG	-0.0171
ATCTTCCCCCTCTTCCTTGCCCCACCAGCTCACCTTCCCGGGTTATTTGCAGATAGGAAAATAAATAAAGCCGGCATTCGTTAACCCTCTTCTGGCGCAAACTGCTGTTTGCTCTGGATGAATCATGGTCCTTTGGCGACGCCAGGCTCCGGGAGAGCAAAGCACCGTGTCAGGGCCATGATCGGGGCGGCTC	0.327
TTGCATAAAGATTTATAGTTTAAGGTGGAGGGAGGCAGAGTTCTGGTTGGCACCAAGTAACCCAGCTGTGGTGAAAATGGGACTAAAGGAAAGTAAACAAGGAAAGACTGACAAATGCACACTGTATTTTATAGAAAGCCTATGTCTGTGACTCTAGTGGTTTTAGTGAATCTGGAATACTTTATAATTCAAT	0.378

Block 4
Target: Sal-like protein 4, full length isoform B (SALL4, Homo sapiens, UniProt Q9UJQ4-2, residues 1-616)
Method: universal PBM
Molecule type: double-stranded DNA, one strand shown
Sample: in vitro
Tested at: not given
Setting: 8-mer, flanks averaged, mean of replicates
Direction: higher = stronger binding
Strand	E-score
GGGAAAAA	0.0982
CCCACGGA	-0.187
ACGCCAAA	0.0344
CGGTGATA	0.136
CCGGATAC	-0.231
AAGGTAGT	0.137
AGGTACCA	-0.0915
GGTTTGAC	-0.0313
ATGATGAA	0.283
CTTGAGGC	-0.241
GATTGGCC	-0.136
CGGACCAC	-0.216
CTACAAGA	0.0454
CGATTTGA	0.0669
AAGAGTCA	0.114
ACGCCCGG	-0.326
AATTAATT	0.378
AAGTCCCC	-0.159

Excerpt of the above (block 4):
Strand	E-score
ATGATGAA	0.283
AGGTACCA	-0.0915
CGATTTGA	0.0669
ACGCCAAA	0.0344
CCGGATAC	-0.231
CGGTGATA	0.136
AAGTCCCC	-0.159
GGGAAAAA	0.0982
